Results pooled from the literature.
Compare with care: the assays were run in different laboratories. Values joined by “and” are separate records of one study, mostly repeats; a detail may differ. ± gives the spread as reported.

NC(=O)c1cnc2[nH]ccc2c1N[C@@H]1[C@@H]2CC3C[C@H]1C[C@@](O)(C3)C2 — change from baseline (flow cytometry, refers to: regulatory T cells; Japanese healthy subjects, peripheral blood; oral, 10 mg twice daily, day 4): -1.08%
N#Cc1ccc2c(-c3ccncc3)c(-c3ccc(F)cc3)nn2c1 — log2 fold change (kinase binding, competitor, MIB/MS competition, refers to: AKL1; Candida albicans cell lysate; 1 µM; reference: DMSO): 0.0514
C=CC(=O)N1CCC(c2ccc(C(N)=O)c(-c3ccc(Oc4ccccc4)cc3)n2)CC1 — ORR (tumour response, Lugano classification; patients with relapsed/refractory MCL; independent review, 10.5 months follow-up): 80.2%
CCO[C@H]1CCN(Cc2c(OC)cc(C)c3[nH]ccc23)[C@H](c2ccc(C(=O)O)cc2)C1 — PNH RBC clone size (PNH patients, blood; oral, 25 mg then 100 mg, week 12, mean absolute change; reference: baseline): 43.4%
Cc1cc(-c2nnc(N)nc2-c2ccc(F)cc2)cc(Cl)n1 — GSVA score change (NanoString, refers to: M1.core.Becker.IO signature; human mCRPC, peripheral blood; dose not given, 2 or 4 weeks; reference: baseline, direction not given): 0.143
CCOCc1nc(O)c(-c2nnc(Cc3ccc(Cl)cn3)o2)c(O)c1-c1c(OC)cccc1OC — heart rate change (anaesthetised rat; intravenous infusion, 100 µg/kg/min for 15 min; reference: baseline): 3.2 ± 0.9%
COc1ccc2c(c1)CC[C@@H]1[C@@H]2CC[C@]2(C)[C@@H](NCCCCCCN3C(=O)C=CC3=O)CC[C@@H]12 — p-PKC level (immunostaining; humanized mouse, SAH model, meninges; dose not given): 5.71 MFI and 8.23 MFI and 12.8 MFI
COc1cc(Nc2ncc3c(n2)-c2ccc(Cl)cc2C(c2c(F)cccc2OC)=NC3)ccc1C(=O)O — relative tumour volume T/C (mouse, KT-10 Wilms tumour xenograft; oral, 5.2 mg/kg, day 7; reference: vehicle): 2
C[C@@H]1COCCN1c1cc([C@]2(O)C[C@H]3CC[C@@H](C2)O3)c2cnn(-c3cc[nH]n3)c2n1 — tumour growth inhibition (LoVo xenograft mice; 7 mg/kg once daily for 7 days, day 17): 46.5 ± 11%
CC(C)c1c(C(=O)Nc2ccccc2)c(-c2ccccc2)c(-c2ccc(F)cc2)n1CC[C@@H](O)C[C@@H](O)CC(=O)O — total cholesterol (cynomolgus monkey, male, serum; 40 mg/kg or 25 mg/kg, day 176, 4224 h): 120 mg/dL
CC(C)[C@H](C(=O)Nc1ccc(C(=O)NO)cc1)c1ccccc1 — pure tone average (human, right ear; 2 weeks after treatment): 55 dB
CC(F)(F)c1cc(F)ccc1-c1sc2cc(O)ccc2c1Oc1ccc(/C=C/C(=O)O)cc1 — partial response (RECIST v1.1, investigator-assessed; human, ER-positive breast cancer; dose not given, best overall response): 1.3%
O=C(OC(C(F)(F)F)C(F)(F)F)N1CCN(Cc2cccc(Oc3ccccc3)c2)CC1 — k4 (PET blocking study; rhesus monkey, brain THA; 0.3 mg/kg, compound pretreatment, added: [18F]T-401 tracer): 0.591 min⁻¹
CO[C@H]1CC[C@H](N2C(=O)CNc3ncc(-c4ccc(C(C)(C)O)nc4)nc32)CC1 — p4EBP1 change from baseline (flow cytometry; stimulated T cells, human, blood; 60 mg single dose, 3 h, mean; reference: baseline): -37.2%
CC(C)n1c(C2CCNCC2)nc2c([N+](=O)[O-])c(Br)c(Br)cc21 — patients with blast reduction (refers to: blasts; AML patients IDH mutated, bone marrow; dose not given, ≥50% reduction from baseline): 37%
CCN1CCN(Cc2ccc(Nc3ncc(F)c(-c4cc(F)c5nc6n(c5c4)[C@H](C)CCC6)n3)nc2)CC1 — partial response (human advanced solid tumours; 400 mg, phase Ia monotherapy RECIST 1.1): 0%
CN(C)C(=O)Oc1cccc([N+](C)(C)C)c1 — train-of-four ratio (neuromuscular block reversal; rat; dose not given, 7 (unit not given), added: cisatracurium; reference: T1 twitch): 53.4
CCc1c(C)nc(-c2ccc(Cl)s2)nc1Nc1ccc(CC(=O)O)cc1 — liver to body weight ratio (C57BL/6J mouse, MCD diet MASH model; intraperitoneal, 0.3 mg/kg daily, MCD diet 6 weeks, dosed final two weeks; reference: untreated): decreased
COc1ccc(F)cc1C(=O)NCc1ccc(-c2nn([C@@H](C)C(F)(F)F)c(N)c2C(N)=O)cc1 — tumour growth inhibition (OCI-Ly10, mouse xenograft; oral, 10 mg/kg twice daily, day 28, 672 h): 88%
C[C@H](Oc1ccc(Br)cc1-c1ccon1)C(=O)O — difference from placebo (first response latency; human, tibialis anterior muscle; 200 mg, 30 Hz, single ascending dose): 0.24%
CC(=O)NCC(=O)NCC(=O)N[C@H](C(=O)N[C@@H](Cc1ccc(O)cc1)C(=O)N[C@@H](CO)C(=O)N[C@H]1CSSC[C@@H](C(=O)N[C@@H](CCCNC(=N)N)C(=O)N2CCC[C@H]2C(=O)N[C@@H](CCC(N)=O)C(=O)N[C@@H](CCCNC(=N)N)C(=O)NCC(=O)NCCC(=O)N[C@@H](CCCCNC(=O)CN(CC(=O)NCCCC[C@H](NC(=O)CCNC(=O)CNC(=O)[C@H](CCCNC(=N)N)NC(=O)[C@H](CCC(N)=O)NC(=O)[C@@H]2CCCN2C(=O)[C@H](CCCNC(=N)N)NC(=O)[C@@H]2CSSC[C@H](NC(=O)[C@H](CO)NC(=O)[C@H](Cc3ccc(O)cc3)NC(=O)[C@@H](NC(=O)CNC(=O)CNC(C)=O)[C@@H](C)O)C(=O)N[C@@H](Cc3c[nH]cn3)C(=O)N[C@@H](Cc3ccccc3)C(=O)NCC(=O)N[C@@H](C)C(=O)N[C@@H](CC(C)C)C(=O)N[C@@H]([C@@H](C)O)C(=O)N[C@@H](Cc3c[nH]c4ccccc34)C(=O)N[C@@H](C(C)C)C(=O)N2)C(N)=O)C(=O)CCN)C(N)=O)NC(=O)[C@H](C(C)C)NC(=O)[C@H](Cc2c[nH]c3ccccc23)NC(=O)[C@H]([C@@H](C)O)NC(=O)[C@H](CC(C)C)NC(=O)[C@H](C)NC(=O)CNC(=O)[C@H](Cc2ccccc2)NC(=O)[C@H](Cc2c[nH]cn2)NC1=O)[C@@H](C)O — reticulocytes (healthy BALB/c mice; subcutaneous, 0.16 mg/kg, 14 d, single dose): 4%
C[C@H]1O[C@@H](O[C@H]2CC[C@@]3(C)[C@@H](CC[C@]4(C)[C@@H]3C=C[C@]35OC[C@@]6(CCC(C)(C)C[C@H]63)[C@@H](O)C[C@]54C)[C@]2(C)CO)[C@H](O)[C@@H](O[C@@H]2O[C@H](CO)[C@@H](O)[C@H](O)[C@H]2O)[C@H]1O — protein level (Western blot, refers to: P-mtor; chronic-plus-binge ethanol-fed mice, liver; dose not given, low dose, unit not given; reference: β-actin): 0.799 and 0.791 and 0.621
C[C@]12CC[C@@H]3c4ccc(O)cc4C[C@@H](CCCCCCCCC[S+]([O-])CCCC(F)(F)C(F)(F)F)[C@H]3[C@@H]1CC[C@@H]2O (stereo partly drawn) — tumour volume (female nude mouse LCC2 xenograft; 2.0 mg/kg, day 5, tamoxifen-resistant): 47 mm3 and 30.9 mm3 and 52.1 mm3 and 65.1 mm3 and 41.9 mm3 and 29.6 mm3 and 63.1 mm3
COc1cc(/C=C/C(=O)CC(=O)/C=C/c2ccc(O)c(OC)c2)ccc1O — relative epididymal fat weight (rat, high-fat diet hyperlipaemia; oral, 200 mg/kg daily, 4 weeks): 47.5 ± 7.2 mg/g body weight
O=c1cc(-c2ccc(O)cc2)oc2c([C@@H]3OC[C@H](O)[C@H](O)[C@H]3O)c(O)c([C@@H]3O[C@H](CO)[C@@H](O)[C@H](O)[C@H]3O)c(O)c12 — IVRT (HFpEF mice; oral, 20 and 40 mg/kg/day): decreased
CC(=O)Oc1cc2c(s1)CCN(C(C(=O)C1CC1)c1ccccc1F)C2 (stereo not drawn) — patients with IPA above threshold (platelet aggregation, light transmittance aggregometry; human, platelet-rich plasma; 15 min, IPA above 80 %, added: TRAP 15 µM; reference: patients): 0%
CN[C@@H]1COc2c(S(=O)(=O)NC(=O)Nc3c4c(cc5c3CCC5)CCC4)cnn2C1 — inhibition (refers to: IL-18; human participants, whole blood ex vivo; 300 mg twice daily, multiple doses, 144 h, IL-18, circulating, adjusted for, added: LPS/ATP; reference: baseline): 93.4%
C[C@H](NC(=O)c1c(C(F)F)nn(C)c1Oc1cccc(C(F)(F)F)c1)c1ccc(C(=O)O)cc1 — progressive disease (irRECIST; human, advanced tumours; 750 mg; best overall response): 42.9%
CCN(Cc1nc2c(N)nc3cc(-c4cc[nH]n4)ccc3c2[nH]1)C(C)=O — patients with increased CTLs (immunohistochemistry, refers to: CD3+CD8+ granzyme B+ cells; patients with advanced solid tumours, injected tumour lesions; dose not given, monotherapy): 67%
OC(CCN1CCCCC1)(c1ccccc1)C1CC2C=CC1C2 (stereo not drawn) — power, delta EEG, O2-Pz (resting-state EEG; healthy elderly humans; oral, 4 mg, eyes closed, LS mean): 9.9 µV²
C[C@H]1C[C@H]2CSC(N)=N[C@@]2(c2nc(NC(=O)c3ccc(OC(F)F)cn3)cs2)CO1 — percent change from baseline (refers to: Aβx-40; healthy adults, plasma; 5 mg once daily, day 10; reference: placebo): -41.7%
CC(C)NCC(O)c1ccc(O)c(O)c1 (stereo not drawn) — sarcomere length (ventricular cardiomyocytes, C57BL/6 mouse; dose not given, 0.124 s): 1.68 µm
Oc1ccc(Br)cc1C=NCCN1CCOCC1 — inhibition (hydroxyl radical scavenging; 120 µM): 29.9%
O=C(O)CNC(=O)Cc1ccccc1 — sarcomere length (ventricular cardiomyocytes, C57BL/6 mouse; dose not given, 0.064 s): 1.72 µm
O=C(COc1ccc(Cl)cc1)NC12CC(c3nnc([C@H]4C[C@@H](OC(F)(F)F)C4)o3)(C1)C2 — mRNA level change (refers to: CHAC1; PBMC ex vivo stimulated, human ALS patients; 100 mg, D21 predose; reference: baseline): -63.4%
Cc1n[nH]c2ccc(-c3cc(OC[C@@H](N)Cc4ccccc4)cnc3-c3ccoc3)cc12 — log2 fold change (kinase binding, competitor, MIB/MS competition, refers to: RIM11; Candida albicans cell lysate; 100 nM; reference: DMSO): -0.208
O=C(O)CCc1nccc2c1[nH]c1ccccc12 — decrease in serum uric acid (mouse, acute hyperuricaemia model; oral, 2 mg/kg): 42.1%
Cc1noc(C)c1-c1cc(C(O)(c2ccccn2)c2ccccn2)c2nc(C3CC3)[nH]c2c1 — maximum inhibition (refers to: CCR2 expression; human, peripheral blood; 3 mg, day 8, 1604 study): 38%
N#Cc1ccn2c(-c3ccncc3)c(-c3ccc(F)cc3)nc2c1 — log2 fold change (kinase binding, competitor, MIB/MS competition, refers to: RCK2; Candida albicans cell lysate; 1 µM; reference: DMSO): -0.0948
Cc1cnc(N2CC3(CCOCC3)C2)c(C(=O)Nc2ccc(C(=O)N3CCc4cc(C(=O)Nc5c(C)cccc5F)sc4-c4ccccc43)cc2)c1 — inhibition (refers to: RANTES; human RSV infection, plasma; dose not given, AUC, ITT-IS population; reference: placebo): 18%
C[C@@H](NC(=O)N1C(=O)[C@H](Cc2ccnc(N)c2)[C@H]1C(=O)O)C1CCCCC1 — aPTT Emax (human; iv infusion, 2.25 mg/kg/h, 24 h): 62.6 s
C[C@H](CS)C(=O)N1CCC[C@H]1C(=O)O — extracellular enkephalin concentration (inhibitor, LC-MS/MS, refers to: Met- or Leu-enkephalin; mouse striatal brain slices; 10 µM, 20 min, added: 50 mM KCl): 846 pM and 1250 pM and 853 pM and 520 pM and 1020 pM and 626 pM

Repeated from above:
C[C@H](NC(=O)c1c(C(F)F)nn(C)c1Oc1cccc(C(F)(F)F)c1)c1ccc(C(=O)O)cc1 — progressive disease (irRECIST; human, advanced tumours; 750 mg; best overall response): 42.9%
CCN(Cc1nc2c(N)nc3cc(-c4cc[nH]n4)ccc3c2[nH]1)C(C)=O — patients with increased CTLs (immunohistochemistry, refers to: CD3+CD8+ granzyme B+ cells; patients with advanced solid tumours, injected tumour lesions; dose not given, monotherapy): 67%
OC(CCN1CCCCC1)(c1ccccc1)C1CC2C=CC1C2 (stereo not drawn) — power, delta EEG, O2-Pz (resting-state EEG; healthy elderly humans; oral, 4 mg, eyes closed, LS mean): 9.9 µV²
